Experimental data pooled from the literature.
Each numbered part is a random draw from the data of one study; scales do not carry over between parts. Positions count from the first letter of the parent shown.

Series 1 — technique: RNA Bind-n-Seq; molecule type: RNA; sample: in vitro; tested at: 365 nM; relative to: no-protein control; direction: higher = stronger binding
Target: RNA binding protein fox-1 homolog 2, RRM domain, GST-SBP tag (RBFOX2, Homo sapiens, UniProt O43251-10, residues 100-194)
Notes: natural RNA segment, single round, ends assumed
All sequences stand within: GGGAGUUCUACAGUCCGACGAUC … UGGAAUUCUCGGGUGCCAA
Construct (chain): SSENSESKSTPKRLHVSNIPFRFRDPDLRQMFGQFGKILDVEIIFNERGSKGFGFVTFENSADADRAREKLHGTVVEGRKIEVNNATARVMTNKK
Strand	RBNS enrichment (R)
UCAGGCCAGUGCACCCCUGGGCAGAGCCCCUUAAAGCUGCUGUCACUAGAUGCCCAUGGUCCAGGGCCUGGUGGGCGUGAGAGGAUAGGUGGCAGGGCAGAAACUGGGCA	0.474
UGAGAUGAGGAUAUGUUUGAGAUGCACAGUUGGAUAAUGUGGGAAAAUGACAUCUAAGCUUUACCUGGUCACCAUGUGAUGUGAUCAGAUGCUUGAAAUUUAACACUUUU	0.561
AAGAUGUCCUUCCAGCUUGUCAGACACUGCCUACCCUCUCCCUGAAUGAGCACUGGCUGAGGCUGUGGCCUUUGACCUUUAUGUUUCCUCCCGUCCUCUAAGACUAGCUC	0.296
AGGGUGAGGGUGGCUUGGGAACCGACCCAGUGAUCAUGCCUACUUUCUUCUUUGUAUCUCCCUCCUUCCCAGCCCACCCGGGCAGCAGACUCUGAUGGAAGGAAGGUGCC	0.41
AGACACAAACCAGCACGUCAAGGGCCUAGCUCCUCCCCACCCCGGCAUUUCAGCGUCAAGUGCACUUAGCGGGGUACCCAGCCCCCCCAGUCCCAACACCUGUCCUGUGU	0.341
AUAUACUUUCUGUUAUUCCAAAAUGUCAUCAUUAGGGAAGCCACUAAGAGUUUGGAAAUAGGGGCUGGAGAGAUGCCUCUGUGGUUAAGAGCAUUGGCUGCUCCUCUAGA	0.305
AAUGUGCUUCGCAAGCCAGGCUAUCUUCCAAGGAAGGCAGACAGUGGGAGAGCAGAGGGACUGACUGCAGGCAAGCACAUUGAAGAAAGACACUGGCGGGUUUCCCCACC	0.574
UUAUCUUUCUGGCUCCUAAUUCCUUUAAAAUUACAUUUGUUGCAGAACCUCCACAAGGCUAAAUAAAAUUACAUUUGUGACCAUCAGAGAACUGAAUAAACCAUUAACUG	0.664
GGCAACAGAGCUAGACUCUGUGUCAAAAAUAAAUGACUAGAUAAAAAAAAAAAUUGUUUGAGUACAUUUUCCCUGCAUUUUAGAGAUUAGGACAGUGGUCACUUUCUAGU	0.509
UCAGGUGAGGUCGCUACCCCUGGAGGUCUGGCAUAAGGGCCCCACCCUCAGGUCUCCUACACUGGCCCCAUUUUACUUUGGGGUCCAAGGACAGGAUGGUCAACAGGGCA	0.242
GUGUGGUAGGACUUGGAGGAGAAAUCCCCUGGACUUUCACUAACCCUCUGACAUACUCCCCACACCCAGUUGAUGGCUUUCCGUAAUAAAAAGAUUGGGAUUUCCUUUUG	0.563
GCAGCCUGGAAGGACAGGUGGAGGCUGGUACAGUGACUGUCCCAUGCCUGCCAUGGCCACAGGCUCUCUCUGUGCAUUCUCUCUGGAGUUAGCCUGCUUCUCACAGGACA	0.697

Series 2 — technique: EMSA with sequencing; molecule type: double-stranded DNA, one strand shown; sample: in vitro; tested at: 10 and 20 nM; relative to: negative control set to 0; direction: higher = stronger binding
Target: Hepatocyte nuclear factor 3-alpha (Foxa1, Mus musculus, UniProt P35582, residues 1-468, full length assumed)
Notes: whole designed probe, mean of two concentrations, ends assumed
All sequences stand within: GTGAGCGGTGCCCATTGATGGGGAAC … TTTCACTGGGATCGTGGGGAC
Target sequence (chain): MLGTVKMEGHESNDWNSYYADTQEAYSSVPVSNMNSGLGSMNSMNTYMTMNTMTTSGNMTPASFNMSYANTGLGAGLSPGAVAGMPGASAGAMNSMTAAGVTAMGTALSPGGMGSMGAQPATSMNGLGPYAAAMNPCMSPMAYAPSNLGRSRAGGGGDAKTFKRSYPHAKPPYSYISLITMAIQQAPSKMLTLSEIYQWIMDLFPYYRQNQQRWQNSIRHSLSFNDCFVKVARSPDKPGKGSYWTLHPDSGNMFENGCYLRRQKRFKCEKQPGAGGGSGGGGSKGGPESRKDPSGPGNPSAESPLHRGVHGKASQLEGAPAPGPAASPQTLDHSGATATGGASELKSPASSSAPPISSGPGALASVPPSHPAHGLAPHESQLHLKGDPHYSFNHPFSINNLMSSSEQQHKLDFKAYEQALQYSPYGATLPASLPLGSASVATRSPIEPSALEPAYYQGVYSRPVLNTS
Strand	normalised bound fraction
ATCTTCCCCCTCTTCCTTGCCCCACCAGCTCACCTTCCCGGGTTATTTGCAGATAGGAAAATAAATAAAGCCGGCATTCGTTAACCCTCTTCTGGCGCAAACTGCTGTTTGCTCTGCATCTAACATGGTCCTTACGCGAGGCGTGGCTCCGGGAGAGCAAAGCACCGTGTCAGGCGCATGATCCGGGCTCGCC	0.353 ratio
TCACGCAGAAATGCATTGGAATGTCAGGAAATTGTGTGTATTTGATGTATTTTACCTGTTGCCTAGAGAGCCCACACAGTGACGCAGGTGCCTGTTTACATTGGCTGATTGCCCGGACTTTGGAAATGCAATTATCCCCCACCACCCCCTCAGCCACTTTCTCCAGCGGACTAGGAGGGGCTGAGTGGTGCAG	0.249 ratio
TGGAGGAAAATTTGGGAACATTTATAAATTATTTTCCTCTTATGATATGTGTAAGTGATGTCTAACTTAAGGAGTTTGCCTGTTATATTGTTCTTGTTTACTTTAATCTAGTGAAAATCCAGAAAGTACCAGGATTACTTTTGCAACCAGAAAAGTCCCTGGGGCTTACTCTGTACAGAGAGTAAACAGTCCC	0.454 ratio
AGAACACCATGTGTAGGGAACCTGAATTTTTTGTAATAGGCCGTAAGCATGCCTGCCCTTTGGCCTGGAAAGAGACACTATATCTTCCAGGGCAGATTGCTGTGTAATCTTCCTTGAAAAGACAGCCTTGAACAAAGGGCAGTCAATAGTTCTACTCAAAAGACATGGAGAAATGCAAAAGACCCATGGAGAT	-0.0113 ratio
GTAACTGTGAGATTTCTGAATTTACAACCTCCCTACAGGAAGTACCAGGTGGCCACGAAAGGCAGCATGGTCCCCATCTCTAATTAAGCTAATGTAAACAAGTGCCACATCATCGCGCCAAACCACAGATGAAACTGACGCCAATTTGGATTCTTTGGGTGGATGGATCTCCCAGAACTTCCAGCTGGCTAGA	0.354 ratio
CTAGTTCCAGTCTTAGCATGACAATTTCTTCCTGCAACGTACTATTTTCATGCAAGAGGTCTTTTTCTTTCTTATAACTAAGAGAAAGCTAAGTAAACAAAGGGAACTTTTAGTTAGCACTCAATAGATTGATATACCATGATTTCTTCTGAAATTAAAAAATAACATCTGTATTTGTATAATGAAAGAATCC	0.515 ratio
GCCTAAACTTTACTTCTCCCAAACCACTTTCTTCATGCATTCAAAACTGGACTTGTTCCACTAAGTCTGCATCTGGTACAGAGACTTCTTGATGTTTACTTAGGCAGTGGCCCATAAGAGTGCTCATTGAAACACCAATCATCATTCATTCATACTTCAATAAATAACTTGTATGGAGAAAAGAGGCTGGGCA	0.455 ratio
CATCTCATTAAAACTTGGCAAATCTTTGGATCTGCTTAGAGACACTGAATGTATATAGAAGAATAACTATTATTATTTATGCTTATAAAATGTTTGTTTACATTGTTTTTCTGCCTTTCTATAACCATCCTGTTGTCTTGGTGACACTGGTACTATTCCAAAAGGTTTTGCCCAACTCATGTAACTAATAAAG	0.463 ratio

Series 3 — technique: DHFR PCA, deep sequencing; sample: yeast; added: (+)-ABA 58 µM; relative to: wild-type fitted maximum; direction: higher = stronger binding
Target: ABI1, truncated, D143A, DHFR fusion (Arabidopsis thaliana)
Notes: methotrexate growth selection, single substitutions
Parent: PYL1, truncated, DHFR fusion (Arabidopsis thaliana); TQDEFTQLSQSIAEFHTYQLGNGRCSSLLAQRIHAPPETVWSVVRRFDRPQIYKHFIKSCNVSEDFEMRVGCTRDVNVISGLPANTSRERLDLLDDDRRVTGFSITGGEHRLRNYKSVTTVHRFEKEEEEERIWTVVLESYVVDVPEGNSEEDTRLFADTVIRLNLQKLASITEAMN; partner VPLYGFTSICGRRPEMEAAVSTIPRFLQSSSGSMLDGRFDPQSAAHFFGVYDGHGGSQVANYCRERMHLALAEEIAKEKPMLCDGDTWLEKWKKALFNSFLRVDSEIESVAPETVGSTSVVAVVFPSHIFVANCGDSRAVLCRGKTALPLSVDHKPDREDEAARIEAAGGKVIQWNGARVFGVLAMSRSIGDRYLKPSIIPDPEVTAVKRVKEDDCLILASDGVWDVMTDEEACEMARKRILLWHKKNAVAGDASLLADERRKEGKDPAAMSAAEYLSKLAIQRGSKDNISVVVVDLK
Change	relative binding score [%]
E130T	94.7
Q31V	50.2
R45K	75.5
F56H	27.8
E125M	90.5
Q167P	6.12
R113E	83.9
R49T	81
S87A	64.1
V118D	14.4
N165Y	18.5
V143Q	38.1
W41P	3.72
Y18E	65.1
E131Q	97.5
V100Y	27.8
R74N	-2.99
I79L	58.3
R123C	88.5
G107Y	16.8
E89N	-24.4

Series 4 — technique: protein-binding microarray; molecule type: double-stranded DNA, one strand shown; sample: in vitro; tested at: not given; direction: higher = stronger binding
Target: Protein C-ets-1 (ETS1, Homo sapiens, UniProt P14921, residues 1-441, full length assumed)
Notes: k-mer, scored over probes, only values ≥0.25
Target sequence (chain): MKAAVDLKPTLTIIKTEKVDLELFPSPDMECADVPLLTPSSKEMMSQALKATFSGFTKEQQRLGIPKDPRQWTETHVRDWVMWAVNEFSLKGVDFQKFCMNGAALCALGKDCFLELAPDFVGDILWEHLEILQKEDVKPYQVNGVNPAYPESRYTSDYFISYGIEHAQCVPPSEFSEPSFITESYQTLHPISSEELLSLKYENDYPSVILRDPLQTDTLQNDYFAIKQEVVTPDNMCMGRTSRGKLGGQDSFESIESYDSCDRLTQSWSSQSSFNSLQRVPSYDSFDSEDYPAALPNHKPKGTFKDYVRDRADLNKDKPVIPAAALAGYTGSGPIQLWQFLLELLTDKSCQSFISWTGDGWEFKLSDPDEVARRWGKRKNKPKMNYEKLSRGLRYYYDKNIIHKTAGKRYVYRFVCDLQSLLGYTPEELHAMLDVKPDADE
Strand	E-score
ACGGAAGT	0.479
AGCGGAAA	0.472
CCGTTCCG	0.258
CTACGTCC	0.267
ATCCTATG	0.276
GGGGAGGA	0.3
AGGAAGGA	0.416
CCGGCGCA	0.293
AGTCCCGG	0.286
CTCCGGAA	0.454
CCCCGGTC	0.339

Series 5 — technique: protein binding microarray; molecule type: double-stranded DNA, one strand shown; sample: in vitro; tested at: not given; relative to: not given; direction: higher = stronger binding
Target: Histone acetyltransferase KAT6A, winged helix 1, GST fusion (KAT6A, Homo sapiens, UniProt Q92794, residues 1-85)
Notes: 8-mer, flanks averaged, mean of 2 arrays, mostly near background
Target sequence (chain): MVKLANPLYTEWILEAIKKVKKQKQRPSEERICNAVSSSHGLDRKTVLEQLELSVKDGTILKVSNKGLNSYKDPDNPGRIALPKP
Strand	E-score
TATATGAA	-0.0817
CTCTAGTA	-0.0563
GAGGGGGC	-0.0865
GCCCATAA	0.171
AACACTCA	-0.0219
AATGCACG	-0.0145
GACTGTAA	-0.00456
CCCGTATC	0.217
AGTGAACA	-0.155
AGGAATTA	-0.0975
GCTAGCCC	-0.0269
GTGTGGGA	-0.0778
GATTGGTA	-0.104
TAACGGGA	0.189
AGTGTTCC	-0.0425
CGTCGAGA	-0.181
GGCCTTCA	0.00951

Series 6 — technique: RNA Bind-n-Seq; molecule type: RNA; sample: in vitro; tested at: 20 nM; notes: 6-mer, flanks averaged, single round; added: 150 mM KCl; relative to: input library; direction: higher = stronger binding
Target: TAR DNA-binding protein 43, full length, His tag (TARDBP, Homo sapiens, UniProt Q13148, residues 1-414)
Strand	6-mer enrichment (R)
UUUCCG	0.613
CCUGAA	0.655
AUAAUG	0.738
AUUGUU	0.604
AGUAUU	0.612
UAACAG	0.718
CGUUCG	0.712
CUAUUG	0.63
GGCGCG	3.76
GUCCUA	0.628
AUUCUA	0.566
GUACUU	0.607

Some of these lines once more (series 4):
Strand	E-score
CCCCGGTC	0.339
AGCGGAAA	0.472
CCGGCGCA	0.293
GGGGAGGA	0.3
ATCCTATG	0.276
